{"data": "Published values pooled from the literature", "organism": "Plasmodium berghei", "note": "Compare with care: the assays were run in different laboratories. ± marks the error that the study gave."}
{"SMILES": "CCCN(CCC)CC1=C(O)C(=O)c2ccccc2C1=O", "system": "NK65, mouse", "conditions": "oral, 100 mg/kg for 3 days, day 5 post-infection", "measurement": "parasitaemia inhibition", "value": "63%"}
{"SMILES": "CCN(CC)c1ccc2nc3c4ccccc4/c(=N/c4ccncc4)cc-3oc2c1", "test": "parasitemia", "system": "mouse", "conditions": "oral, single dose", "how to read": "baseline: untreated", "measurement": "ED90", "value": "20 mg/kg"}
{"SMILES": "CC(C)C(C(=O)N[C@@H](Cc1ccccc1)[C@H](O)CN1CCN(Cc2ccc(Br)cc2)CC1)N1C(=O)c2ccccc2C1=O (stereo partly drawn)", "test": "parasite growth", "system": "HepG2", "conditions": "liver stage", "measurement": "IC50", "value": "30000 nM"}
{"SMILES": "COc1ccc(S(=O)(=O)NCc2c[nH]nc2-c2cccs2)cc1", "test": "liver stage multiplication", "system": "HepG2, sporozoites", "conditions": "added before invasion", "measurement": "EC50", "value": "108 ± 21 nM"}
{"SMILES": "O=C1C(O)=C(CN2CC3CCC2CC3)C(=O)c2ccccc21", "system": "NK65, mouse", "conditions": "oral, 100 mg/kg for 3 days, day 5 post-infection", "measurement": "parasitaemia inhibition", "value": "63%"}
{"SMILES": "O=C1C2=C(Nc3ccccc3SC2c2ccc(F)cc2)c2ccccc21 (racemic)", "test": "liver stage growth", "system": "HepG2, ANKA, luciferase-expressing", "conditions": "45 h post-infection", "measurement": "IC50", "value": "391 ± 28 nM"}
{"SMILES": "CC(C)(C)OC(=O)N[C@H](Cc1ccccc1)[C@@H](O)CN1CCC(N2CCCCC2)CC1", "test": "parasite growth", "system": "HepG2", "conditions": "1 µM, liver stage", "measurement": "inhibition", "value": "44%"}
{"SMILES": "O=C(C1CCN(c2nnnn2-c2ccccc2)CC1)N1CCCc2ccccc21", "test": "parasite growth, luciferase", "conditions": "48 h, liver stage", "measurement": "IC50", "value": "90 nM"}
{"SMILES": "O=C1C2=C(Nc3ccccc3SC2c2ccsc2)c2ccccc21 (racemic)", "test": "liver stage growth", "system": "HepG2, ANKA, luciferase-expressing", "conditions": "45 h post-infection", "measurement": "IC50", "value": "151 ± 42 nM"}
